# Assay results collected from several papers.
# A part holds a random share of what one study measured. Values joined by “and” are separate records of one study, mostly repeats; a detail may differ.

# Sample 1 — cell line: HEK-293T; observed: pseudovirus infection; method: FDA-approved drug library counter-screen; organism: VSV pseudotyped with VSV-G; concentration: 10 µM; time: 16 h; baseline: vehicle-treated
SMILES,GFP-positive cells [%]
[H]/N=C(/N)N[C@H]1[C@H](O)[C@@H](O)[C@H](O[C@@H]2O[C@@H](C)[C@](O)(C=O)[C@H]2O[C@@H]2O[C@@H](CO)[C@H](O)[C@@H](O)[C@@H]2NC)[C@@H](N/C(N)=N\[H])[C@@H]1O,130
Cc1onc(-c2ccccc2)c1-c1ccc(S(N)(=O)=O)cc1,107
COc1ccc2[nH]c([S+]([O-])Cc3ncc(C)c(OC)c3C)nc2c1 (stereo not shown),84.1
CS(=O)(=O)CCNCc1ccc(-c2ccc3ncnc(Nc4ccc(OCc5cccc(F)c5)c(Cl)c4)c3c2)o1,37
NCCCCCC(=O)O,88.7
CC(C)/N=c1\cc2n(-c3ccc(Cl)cc3)c3ccccc3nc-2cc1Nc1ccc(Cl)cc1,123
O=C1CC[C@@]2(O)[C@H]3Cc4ccc(O)c5c4[C@@]2(CCN3CC2CC2)[C@H]1O5,124
CO/N=C(\C(=O)N[C@@H]1C(=O)N2C(C(=O)O)=C(C[N+]3(C)CCCC3)CS[C@H]12)c1csc(N)n1,84.1
CC(=O)CCCCn1c(=O)c2c(ncn2C)n(C)c1=O,131
[H]/N=C(/NCCCCC)N/N=C/c1c[nH]c2ccc(OC)cc12,101
CN(C)CCC(c1ccc(Cl)cc1)c1ccccn1 (stereo not shown),99.7
NC(=O)N1c2ccccc2CC(=O)c2ccccc21,126
CCCCCCCCCCC[C@@H](C[C@@H]1OC(=O)[C@H]1CCCCCC)OC(=O)[C@H](CC(C)C)NC=O,104

# Sample 2 — cell line: mouse MPNST tumor cells; method: high-content immunofluorescence imaging; measured: nuclear SOX9; concentration: 10 µM; time: 12 h; notes: mean of 2 replicates; baseline: DMSO control; direction: higher = more nuclear SOX9
Compound,nuclear SOX9 intensity
COc1ccc2[nH]c(-c3ccccc3)c(CCN(C)C)c2c1,128 % of DMSO
CN(C)CCN(C)CCc1ccc(Cl)c(Cl)c1,131 % of DMSO
Cc1sc2c(c1C)C(c1ccc(Cl)cc1)=NC(CC(N)=O)c1nnc(C)n1-2 (stereo not shown),125 % of DMSO
CC(C)(C)NCC(O)c1ccccc1Cl (stereo not shown),95 % of DMSO

# Sample 3 — observed: enzyme activity; action: inhibitor; concentration: 77 µM; baseline: untreated
# Target: DNA polymerase theta, ATPase domain (POLQ, Homo sapiens, UniProt O75417)
# Chain of UniProt O75417 (whole entry, unmodified, looked up): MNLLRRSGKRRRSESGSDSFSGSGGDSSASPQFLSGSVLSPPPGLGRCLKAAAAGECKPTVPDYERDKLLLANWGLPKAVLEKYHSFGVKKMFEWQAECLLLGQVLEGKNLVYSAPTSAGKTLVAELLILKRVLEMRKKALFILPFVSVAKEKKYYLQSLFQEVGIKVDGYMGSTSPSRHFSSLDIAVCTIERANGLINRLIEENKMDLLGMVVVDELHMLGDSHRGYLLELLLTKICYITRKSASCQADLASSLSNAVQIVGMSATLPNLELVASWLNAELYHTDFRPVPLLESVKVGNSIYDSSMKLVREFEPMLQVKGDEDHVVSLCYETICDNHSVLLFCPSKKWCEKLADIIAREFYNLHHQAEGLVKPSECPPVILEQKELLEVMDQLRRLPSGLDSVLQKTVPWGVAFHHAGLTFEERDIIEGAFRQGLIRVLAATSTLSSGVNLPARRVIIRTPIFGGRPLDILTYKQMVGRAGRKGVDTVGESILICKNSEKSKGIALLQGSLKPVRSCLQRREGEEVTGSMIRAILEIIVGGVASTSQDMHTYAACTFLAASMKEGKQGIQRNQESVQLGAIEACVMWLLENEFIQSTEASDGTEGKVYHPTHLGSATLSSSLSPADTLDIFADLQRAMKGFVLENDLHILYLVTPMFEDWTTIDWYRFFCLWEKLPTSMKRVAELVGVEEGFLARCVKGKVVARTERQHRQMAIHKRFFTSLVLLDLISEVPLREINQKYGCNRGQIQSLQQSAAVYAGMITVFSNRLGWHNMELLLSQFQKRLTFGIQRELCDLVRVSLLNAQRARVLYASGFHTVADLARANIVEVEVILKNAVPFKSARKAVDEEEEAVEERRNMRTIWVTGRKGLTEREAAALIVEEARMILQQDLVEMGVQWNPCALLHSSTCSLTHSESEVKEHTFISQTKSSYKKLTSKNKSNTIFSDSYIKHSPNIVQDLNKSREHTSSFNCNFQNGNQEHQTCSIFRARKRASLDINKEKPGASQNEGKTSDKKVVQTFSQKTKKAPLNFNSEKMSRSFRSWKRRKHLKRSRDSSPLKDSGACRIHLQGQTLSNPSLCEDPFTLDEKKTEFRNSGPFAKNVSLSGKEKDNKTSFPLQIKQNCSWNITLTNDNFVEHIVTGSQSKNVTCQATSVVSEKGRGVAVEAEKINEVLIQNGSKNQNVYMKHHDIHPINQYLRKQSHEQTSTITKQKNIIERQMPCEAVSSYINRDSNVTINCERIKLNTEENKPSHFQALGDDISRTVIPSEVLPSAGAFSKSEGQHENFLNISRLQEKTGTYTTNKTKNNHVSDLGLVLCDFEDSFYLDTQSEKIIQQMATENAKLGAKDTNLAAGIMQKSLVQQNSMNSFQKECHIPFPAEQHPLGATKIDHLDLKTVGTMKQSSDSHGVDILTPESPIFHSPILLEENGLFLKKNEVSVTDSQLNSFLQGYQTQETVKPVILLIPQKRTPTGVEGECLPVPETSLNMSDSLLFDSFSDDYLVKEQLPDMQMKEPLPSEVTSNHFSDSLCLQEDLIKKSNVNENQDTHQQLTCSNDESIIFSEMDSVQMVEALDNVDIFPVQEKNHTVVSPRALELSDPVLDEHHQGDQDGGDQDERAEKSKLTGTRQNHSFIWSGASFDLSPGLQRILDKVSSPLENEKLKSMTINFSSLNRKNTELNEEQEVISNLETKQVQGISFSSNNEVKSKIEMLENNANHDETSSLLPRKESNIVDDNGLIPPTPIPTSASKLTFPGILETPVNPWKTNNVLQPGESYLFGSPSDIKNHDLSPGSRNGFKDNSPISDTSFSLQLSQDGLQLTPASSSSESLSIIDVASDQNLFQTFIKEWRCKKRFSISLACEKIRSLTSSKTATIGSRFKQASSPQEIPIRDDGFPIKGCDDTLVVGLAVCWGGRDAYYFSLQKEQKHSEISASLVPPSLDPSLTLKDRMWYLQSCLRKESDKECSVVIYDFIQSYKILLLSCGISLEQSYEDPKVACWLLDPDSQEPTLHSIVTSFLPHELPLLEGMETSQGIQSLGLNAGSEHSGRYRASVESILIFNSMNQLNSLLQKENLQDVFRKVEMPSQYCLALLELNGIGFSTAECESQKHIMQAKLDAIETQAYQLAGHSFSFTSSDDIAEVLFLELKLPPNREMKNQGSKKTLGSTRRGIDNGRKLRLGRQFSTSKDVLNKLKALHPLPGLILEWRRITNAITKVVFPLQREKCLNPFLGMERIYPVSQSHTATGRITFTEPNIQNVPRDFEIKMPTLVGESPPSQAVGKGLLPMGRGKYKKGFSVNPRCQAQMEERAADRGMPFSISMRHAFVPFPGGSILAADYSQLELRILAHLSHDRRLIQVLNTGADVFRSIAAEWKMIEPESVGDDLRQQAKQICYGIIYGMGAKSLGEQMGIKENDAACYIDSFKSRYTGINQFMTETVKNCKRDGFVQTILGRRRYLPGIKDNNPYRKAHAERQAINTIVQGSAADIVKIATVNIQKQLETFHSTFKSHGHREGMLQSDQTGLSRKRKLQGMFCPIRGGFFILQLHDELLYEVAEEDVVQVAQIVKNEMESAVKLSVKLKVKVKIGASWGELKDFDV
Compound,remaining activity
NC(N)=NOCC[C@H](N)C(=O)O,96.4%
CCC1(C)CC(=O)NC(=O)C1,102%
CN1CCC[C@@H]1Cc1c[nH]c2ccc(Nc3ncccc3[N+](=O)[O-])cc12,96.2%
COc1ccc2[nH]cc(CCN)c2c1,103%
O=C1NC(=O)c2c1c1c3ccccc3[nH]c1c1[nH]c3ccccc3c21,95.4%
CC(=O)OCC(=O)[C@H]1CC[C@H]2[C@@H]3CC[C@H]4C[C@H](O)CC[C@]4(C)[C@H]3C(=O)C[C@]12C,97.1%
COc1ccc2c(c1)[nH]c1c(C)nccc12,103%
CN1CCc2cc3c(cc2[C@H]1[C@@H]1OC(=O)c2c1ccc1c2OCO1)OCO3,95% and 100%
NCc1cc(O)no1,101%
NCC(CC(=O)O)c1ccc(Cl)cc1 (racemic),95.5%

# Further values, each from its own experiment
SMILES,organism,host,concentration,notes,quantity,result
CNC(=O)c1ccc(-c2cnn3ccc(C(=O)N(C)c4ccc(Cl)c(C(=O)OC)c4)cc23)cc1,Cryptosporidium parvum,"neonatal calves, experimentally infected",concentration not given,"after treatment, calf age 1-7 days",frequency of moderate-to-severe diarrhoea,46.7% and 60% and 66.7% and 20% and 21.4% and 53.3%
